Results pooled from the literature.
Protocols differ between the studies behind these lines. “And” joins repeats or separate records; there may be more than shown. Numbers after ± are the reported error.
CYP2D6: Cytochrome P450 2D6 (CYP2D6, Homo sapiens, UniProt P10635)

| Structure (SMILES) | target or system | assay | test system | conditions | scale | endpoint | value |
| --- | --- | --- | --- | --- | --- | --- | --- |
| O=C1NC2(CC2)COc2ncc(F)cc2[C@H]2COCCN2c2ccn3ncc1c3n2 |  |  | Sprague-Dawley rat, male, liver | oral, 20 mg/kg/day, 4 weeks dosing, end of recovery |  | organ-to-brain weight ratio | 649 ± 99.3% |
| CC(C)[C@H]1NC(=O)C[C@H]2/C=C/CCSSC[C@@H](NC1=O)C(=O)N[C@H](Cc1cccc3ccccc13)C(=O)NCC(=O)O2 | EGFR (Homo sapiens, UniProt P00533, L861Q) | enzyme activity, inhibitor |  | 10 µM |  | inhibition | -6.4% |
| CC(C)C[C@H](NC(=O)[C@H](CC(C)C)NC(=O)[C@H](CCCCN)NC(=O)[C@H](Cc1ccccc1)NC(=O)[C@@H](NC(=O)[C@H](CCCNC(=N)N)NC(=O)[C@@H](N)CCCCN)C(C)C)C(=O)N[C@@H](CCCCN)C(=O)N[C@@H](CCCNC(=N)N)C(=O)N[C@@H](Cc1ccc(O)cc1)C(=O)N[C@@H](Cc1c[nH]c2ccccc12)C(=O)N[C@@H](CCCNC(=N)N)C(=O)N[C@@H](CCC(N)=O)C(=O)N[C@@H](CC(C)C)C(=O)N[C@@H](CCCCN)C(=O)N[C@@H](CCCCN)C(=O)N1CCC[C@H]1C(=O)N[C@H](C(=O)N[C@@H](CCCNC(=N)N)C(=O)NCCOCCOCC(=O)O)C(C)C | Serine protease 1 (PRSS1, Bos taurus, UniProt P00760) | HPLC |  | 1 mg/mL, 30 min, 37 °C, added: enzyme to peptide 50:1 | baseline: untreated peptide | degradation | 14 to 17% |
| CCCCCCCCCCCC(=O)C(C)C(=O)N1CCC[C@H]1C(=O)NC(C)(C)C(=O)NC(C)(C)C(=O)NC(C)(C)C(=O)N[C@](C)(CC)C(=O)NCCC(=O)N[C@@H](C)C(=O)N[C@](C)(CC)C(=O)N[C@@H](C)C(=O)N[C@@H](CC(C)C)C(=O)N[C@](C)(CC)C(=O)NCCC(=O)N[C@@H](C)C(=O)N[C@](C)(CC)C(=O)NCCC(=O)N[C@@H](C)C(=O)NC(C)(C)C(=O)NC(C)(C)C(=O)NC(C)(C)C(=O)N[C@@H](C)C(=O)N[C@@H](CC(=O)O)C(=O)O (stereo partly shown) | human neutrophil elastase | LC-MS |  | 40 µM, 60 min, pH 7.5, 37 °C | baseline: 0 h | remaining intact peptide | 64.7% |
| CN(C)[C@H]1C[C@@]23CC[C@@]4(O2)C(=CC[C@]2(C)[C@@H](c5ccc6ccncc6c5)CC[C@H]24)C=C3[C@@H](O)[C@@H]1O | HCK (Homo sapiens, UniProt P08631) | ATP probe labelling, inhibitor, KiNativ profiling |  | 1 µM |  | inhibition | 0.9% |
| CS(C)(=O)=Nc1ccc(-c2ccc(-c3nc4cc(O[C@@H]5CO[C@H]6[C@@H]5OC[C@H]6O)[nH]c4cc3F)cc2)cc1 | ABL1 (Homo sapiens, UniProt P00519, Q252H) | enzyme activity, inhibitor |  | 10 µM |  | inhibition | -13% |
| CC(=O)N[C@H](C(=O)N[C@H](C(=O)N1CCC[C@H]1C(=O)NCC(=O)N[C@@H](CC(C)C)C(=O)N[C@@H](CCCCN)C(=O)N1CCC[C@H]1C(=O)N[C@@H](Cc1ccccc1)C(=O)N[C@H](C(=O)NCC(=O)NCC(=O)N[C@@H](Cc1ccc(O)cc1)C(=O)NCC(=O)N[C@@H](CCCNC(=N)N)C(=O)N[C@@H](CCCCN)C(=O)N[C@@H](CCCCN)C(=O)N[C@@H](CCCNC(=N)N)C(=O)N[C@@H](CCCNC(=N)N)C(=O)N[C@@H](CCC(N)=O)C(=O)N[C@@H](CCCNC(=N)N)C(=O)N[C@@H](CCCNC(=N)N)C(=O)N[C@@H](CCCNC(=N)N)C(N)=O)C(C)C)C(C)C)C(C)C | trypsin (pig) | substrate, RP-HPLC | Tris buffer | 2.5 mg/mL, 0.1667 h, pH 8.0, 37 °C |  | degradation | ~20% |
| CNC(=O)C1CCCN(C(=O)C2CC3CCC2N3C(=O)[C@@H]2C[C@@H](O)CN2C(=O)NCc2cccc(Cl)c2F)C1 (mixture of isomers) | CYP3A4 (human) | inhibitor, time-dependent inhibition |  | 50 µM, preincubated without NADPH, added: midazolam substrate | baseline: negative control | remaining activity | 108% |
| C=C(C)C(=O)NCCCCCC(=O)NCC(=O)N[C@@H](C)C(=O)N[C@@H](CC(C)C)C(=O)N[C@H](C(=O)N1CCC[C@H]1C(=O)N[C@@H](CCCNC(=N)N)C(=O)NCC(=O)N[C@@H](C)C(=O)N[C@@H](CC(=O)O)C(=O)N[C@@H](CO)C(=O)NCC(=O)N[C@@H](CO)C(=O)NCC(N)=O)[C@@H](C)O | α-chymotrypsin | substrate, HPLC | DPBS | 200 µM, 50 min, 37 °C, added: chymotrypsin 1.0 µM |  | cleavage | 55% |
| O=C(O)c1ccc(-c2nc(-c3ccccc3Cl)c3sccn23)cc1 | Nav1.5 sodium channel | radioligand binding |  | 10 µM | baseline: control | specific binding | 89.7% and 99.5% |
| O=C(CN1C(=O)C2(CCN(C(=O)c3ccc4[nH]ncc4c3)CC2)c2c(Br)cccc21)NCC(F)(F)F | CYP2D6 | enzyme activity, inhibitor |  |  |  | IC50 | 1100 nM |
| O=C1NC(=O)c2c1c1cc(F)c[n+]3c1c1c2c2cc(O)ccc2[n]1[Ru-4]312([N]=C=S)[S+]3CC[S+]1CC[S+]2CC3 (stereo not shown) | ABL1 (Homo sapiens, UniProt P00519, H396P) | enzyme activity |  | 100 nM, human enzyme, added: 10 µM ATP | baseline: untreated | remaining activity | 96% |
| C[C@@H]1NC(=O)[C@H](CCCNC(=N)N)NC(=O)[C@H](Cc2ccc3ccccc3c2)NC(=O)[C@H]2CCCCN2C(=O)[C@@H]([C@H](C)O)NC(=O)[C@H](Cc2ccc(F)cc2)NC(=O)[C@@H](Cc2ccc(F)cc2)NC(=O)c2cc3cc(c2)C(=O)NC[C@H](NC(=O)[C@@H](Cc2ccccc2)NC1=O)C(=O)N[C@@H](Cc1ccccc1)C(=O)N[C@@H](Cc1ccc2ccccc2c1)C(=O)N[C@@H](CCCNC(=N)N)C(=O)N[C@@H](CCCNC(=N)N)C(=O)N[C@@H](CCCNC(=N)N)C(=O)N[C@@H](CCCNC(=N)N)C(=O)N[C@H](C(=O)N[C@@H](CCCCN)C(N)=O)CNC3=O | Albumin (ALB, Bos taurus, UniProt P02769) | binding |  |  |  | Kd | ~20000 nM |
| COc1ccccc1-c1n[nH]c2nc(NC3CCN(C(=O)Cc4ccc(F)cc4F)CC3)ncc12 |  | bead binding, competition bead pull-down, item: LINJ.05.0100 | Leishmania donovani axenic amastigote extract | 10 µM | baseline: vehicle | relative abundance | 1.13 |
| CC(=O)NCCCC[C@@H]1NC(=O)[C@H](Cc2c[nH]c3c(C)cccc23)NC(=O)[C@H]([C@@H](C)O)NC(=O)[C@H](CC(N)=O)NC(=O)[C@@H](NC(C)=O)C(C)(C)SSC(C)(C)[C@@H](C(=O)N[C@@H](Cc2ccc(OCCN)cc2)C(=O)N[C@@H](Cc2ccc3ccccc3c2)C(=O)NC2(C(=O)N[C@@H](CCC(=O)O)C(=O)N[C@@H](CC(N)=O)C(=O)N[C@@H](Cc3cccnc3)C(=O)N(C)CC(N)=O)CCOCC2)NC1=O | human alpha-1-acid glycoprotein 0.14% | equilibrium dialysis |  | 0.01 µM |  | fraction unbound | 92.4 ± 4.1% |
| Cc1cccc2c1C1(CCN(C(=O)c3ccc4[nH]ncc4c3)CC1)C(=O)N2CC(=O)NCC(F)(F)F | CYP2D6 | enzyme activity, inhibitor |  |  |  | IC50 | 2500 nM |
| CCCO[C@H]1[C@H](O)[C@@H](N)[C@@H](O[C@H]2[C@H](O[C@@H]3O[C@H](CO)[C@@H](O[C@H]4O[C@@H](CN)[C@@H](O)[C@H](O)[C@H]4N)[C@H]3O)[C@@H](O)[C@H](N)C[C@@H]2N)O[C@@H]1CO | KCNH2 (Homo sapiens, UniProt Q12809) | ligand displacement, radioligand |  | 10 µM |  | binding vs control | 6% |
| CCN(CC)CCOc1ccc(-c2nnn(Cc3ccc(OC)cc3)c2N)cc1 | SLC22A8 (Homo sapiens, UniProt Q8TCC7) | transporter uptake, inhibitor |  |  |  | IC50 | > 100000 nM |
| Cc1cc(-c2ccc3ccccc3c2)nnc1NCCN1CCN(C)CC1 | Cytochrome P450 4F2 (Homo sapiens, UniProt P78329) | substrate | recombinant enzyme | 1000 nM, 30 min |  | remaining parent compound | 89.8% |

Excerpt of the above:
| Structure (SMILES) | target or system | assay | test system | conditions | scale | endpoint | value |
| --- | --- | --- | --- | --- | --- | --- | --- |
| CCCCCCCCCCCC(=O)C(C)C(=O)N1CCC[C@H]1C(=O)NC(C)(C)C(=O)NC(C)(C)C(=O)NC(C)(C)C(=O)N[C@](C)(CC)C(=O)NCCC(=O)N[C@@H](C)C(=O)N[C@](C)(CC)C(=O)N[C@@H](C)C(=O)N[C@@H](CC(C)C)C(=O)N[C@](C)(CC)C(=O)NCCC(=O)N[C@@H](C)C(=O)N[C@](C)(CC)C(=O)NCCC(=O)N[C@@H](C)C(=O)NC(C)(C)C(=O)NC(C)(C)C(=O)NC(C)(C)C(=O)N[C@@H](C)C(=O)N[C@@H](CC(=O)O)C(=O)O (stereo partly shown) | human neutrophil elastase | LC-MS |  | 40 µM, 60 min, pH 7.5, 37 °C | baseline: 0 h | remaining intact peptide | 64.7% |
